# Assay results pooled from the literature.
# Parts stem from different laboratories: compare values within a part only. Positions count from the first letter of the parent shown.

# Block 1 — target: CCNA1, cyclin fold, Cln2 fusion (human); technique: yeast growth competition, sequencing; matrix: yeast; notes: weak parent motif; relative to: not given; direction: higher = stronger binding
# Starting sequence: RBL1 docking peptide (human); GSAKRRLFGEDPP; partner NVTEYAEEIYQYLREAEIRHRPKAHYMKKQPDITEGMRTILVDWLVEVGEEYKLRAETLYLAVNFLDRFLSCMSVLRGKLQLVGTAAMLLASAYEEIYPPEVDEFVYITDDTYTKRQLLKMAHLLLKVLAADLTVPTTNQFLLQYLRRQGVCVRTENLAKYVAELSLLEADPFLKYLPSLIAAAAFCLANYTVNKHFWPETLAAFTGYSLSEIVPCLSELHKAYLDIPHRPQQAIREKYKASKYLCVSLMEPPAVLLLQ
Variant,normalised enrichment score
R5F,0.254
G9W,0.577
K4S,0.151
L7P,0.379
G9D,0.729
D11N,0.462
L7Y,0.235
D11Y,0.792

# Block 2 — technique: protein-binding microarray; molecule type: double-stranded DNA, one strand shown; matrix: in vitro; tested at: not given; direction: higher = stronger binding
# Target: Protein max, full length (MAX, Homo sapiens, UniProt P61244-2, residues 1-151)
# Notes: k-mer, scored over probes, only values ≥0.25
Strand,E-score
GAACACGA,0.338
ACATGTCG,0.309
CACGGTGA,0.309
CAACACGC,0.395
AACGTGCG,0.428
ATGTGCTA,0.306
ACGCGAGG,0.309
CGTGTGAG,0.331
ATGTGTGG,0.299
ATGCGTTA,0.296

# Block 3 — technique: RNA Bind-n-Seq; molecule type: RNA; matrix: in vitro; tested at: 365 nM; relative to: no-protein control; direction: higher = stronger binding
# Target: RNA binding protein fox-1 homolog 2, RRM domain, GST-SBP tag (RBFOX2, Homo sapiens, UniProt O43251-10, residues 100-194)
# Notes: natural RNA segment, single round, ends assumed
# Residues (chain): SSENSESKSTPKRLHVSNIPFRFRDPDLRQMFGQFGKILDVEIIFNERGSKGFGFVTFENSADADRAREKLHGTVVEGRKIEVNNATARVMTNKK
Strand,RBNS enrichment (R)
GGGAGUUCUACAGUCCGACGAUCAACGUUUCCCUCAGCUCUGUCACCAACUCACUUCUCUCGGCUUCGUUGUCUGUAAAUUGGAUGAAAAGAGCUCUAAUGCCUUUCAGGCUCUUAGAAGCCAUAGAUUUGGAUGGAAUUCUCGGGUGCCAA,0.32
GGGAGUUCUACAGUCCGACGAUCCCUAGUAGCAUGCAACCCAUGACUGUUUACUUCCCUAAAAGGGUUAGGUCUGUGUCCUGCACAGUGUUCAAAACCAUUAAAUGUGUUCUUUGUAGCAGGAUGGUACACAGUGGAAUUCUCGGGUGCCAA,12
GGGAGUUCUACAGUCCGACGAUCUUUCCAAAGGUUAGGGAAGAUUCCAAUUAAAUUUAUGCCUUAUAAAAUUAUGUUGUAGAAAAAAAAUCAACCUCUCCCAGGUGCAUUAAGAAAUAAGAAUUCCCAGGGUUUGGAAUUCUCGGGUGCCAA,0.882
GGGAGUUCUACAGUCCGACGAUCUUCUUAACACUGGUAGCUCCUGUCCCAUUCCAAGACUCACUCUCUCAGACCUUCCCAUCUCCCUGGCUUUCCAUGCUCCUCUCCCUCCACCUCCUGGCUUCAACUGGGUGUGGAAUUCUCGGGUGCCAA,0.724
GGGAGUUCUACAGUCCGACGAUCGGAUUAACAGCCAUUUAUAUGGACUUAUGUCUCUUAAUGCACAAAGAAGCAGAUAUCUCGAAGGAGCUUACACAAGAACCACAAUUACUAGAUCAUGAUAUACUUGGAAAUGGAAUUCUCGGGUGCCAA,0.44
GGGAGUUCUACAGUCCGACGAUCCUAUAUUUAUUAUAUAUUUUUUCCUUAUUAACAGAGUAUUAAUCUAGUAAAAAAUAACCCAGCAGUAAAUAAUAAAGAAAUUACUGAAUGAGAGGAUAAUGAAUCUGAAUUGGAAUUCUCGGGUGCCAA,0.555
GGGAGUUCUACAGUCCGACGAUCUGAGGGAUGUUGGACAGAGCCUGUUUUCAUGUACUGCAGGUGGGGGUGUGCUGACAUGUUUGCUCUUGGUUGAUGGAGAAGGUACAGAGGCCAGGGAGUGAAAAUGGUUGUGGAAUUCUCGGGUGCCAA,2.73
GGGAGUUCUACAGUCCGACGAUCGUUUUGUUCUCUUUGUUGGUUGUUUUUCCUUAAUCUUUCUCCUUUCUAUCUGAUUUAAGCAAAAGAGAAAAAAAUAUCUGAAAGCUGUCUUAAAGAGAGAGAGAGAGAGAUGGAAUUCUCGGGUGCCAA,0.387
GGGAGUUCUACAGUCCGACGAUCCAUUCCUUUAUGGGAGCGUCUGCGCCUGGGCUGAGUGUGGGGGAUACACAGAUGUUCUAUCUAGAACAUUUCCAUUGCAACAGCUAAGUUUGUGUUUCGUGGUUUUUUUAUGGAAUUCUCGGGUGCCAA,0.503
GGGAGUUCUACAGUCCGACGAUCCCCUGCUGAGGUUCAGAACUUUGAACCCUCAGGUUCUCCUGGGUUUACUUCACCUGAGGGAAUAGCCUCUCUACCUCGCAGAAAAUGUACCCUACCCCUCAAAUAUUGCCUGGAAUUCUCGGGUGCCAA,0.659

# Mixed results
Molecule,target,test,system,setting,how to read,measurement,value
"PhoQ, residues 284 288 289 292 302 303 SCEHLI","PhoP, residues 12 14 15 18 19 NHFIF (Escherichia coli, UniProt P23836)","Sort-seq, item: YFP reporter",E. coli,"PhoQ-PhoP variant library, with: 10 µM Mg2+","relative to: high Mg2+ state, higher = stronger signaling",fold induction,18.8

# Excerpt of the above (block 3):
Strand,RBNS enrichment (R)
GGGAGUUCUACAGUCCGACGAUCAACGUUUCCCUCAGCUCUGUCACCAACUCACUUCUCUCGGCUUCGUUGUCUGUAAAUUGGAUGAAAAGAGCUCUAAUGCCUUUCAGGCUCUUAGAAGCCAUAGAUUUGGAUGGAAUUCUCGGGUGCCAA,0.32
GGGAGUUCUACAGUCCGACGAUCCUAUAUUUAUUAUAUAUUUUUUCCUUAUUAACAGAGUAUUAAUCUAGUAAAAAAUAACCCAGCAGUAAAUAAUAAAGAAAUUACUGAAUGAGAGGAUAAUGAAUCUGAAUUGGAAUUCUCGGGUGCCAA,0.555
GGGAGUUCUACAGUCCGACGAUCUUUCCAAAGGUUAGGGAAGAUUCCAAUUAAAUUUAUGCCUUAUAAAAUUAUGUUGUAGAAAAAAAAUCAACCUCUCCCAGGUGCAUUAAGAAAUAAGAAUUCCCAGGGUUUGGAAUUCUCGGGUGCCAA,0.882
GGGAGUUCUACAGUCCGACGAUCUUCUUAACACUGGUAGCUCCUGUCCCAUUCCAAGACUCACUCUCUCAGACCUUCCCAUCUCCCUGGCUUUCCAUGCUCCUCUCCCUCCACCUCCUGGCUUCAACUGGGUGUGGAAUUCUCGGGUGCCAA,0.724
